Published values of several laboratories.
A part holds a random share of what one study measured.

Set 1 — technique: protein-binding microarray; form: double-stranded DNA, one strand shown; sample: in vitro; tested at: not given; reading: higher = stronger binding; endpoint: E-score
Target: Transcription factor Sp1 (SP1, Homo sapiens, UniProt P08047, residues 1-785, full length assumed)
UniProt P08047, sequence (whole entry, looked up): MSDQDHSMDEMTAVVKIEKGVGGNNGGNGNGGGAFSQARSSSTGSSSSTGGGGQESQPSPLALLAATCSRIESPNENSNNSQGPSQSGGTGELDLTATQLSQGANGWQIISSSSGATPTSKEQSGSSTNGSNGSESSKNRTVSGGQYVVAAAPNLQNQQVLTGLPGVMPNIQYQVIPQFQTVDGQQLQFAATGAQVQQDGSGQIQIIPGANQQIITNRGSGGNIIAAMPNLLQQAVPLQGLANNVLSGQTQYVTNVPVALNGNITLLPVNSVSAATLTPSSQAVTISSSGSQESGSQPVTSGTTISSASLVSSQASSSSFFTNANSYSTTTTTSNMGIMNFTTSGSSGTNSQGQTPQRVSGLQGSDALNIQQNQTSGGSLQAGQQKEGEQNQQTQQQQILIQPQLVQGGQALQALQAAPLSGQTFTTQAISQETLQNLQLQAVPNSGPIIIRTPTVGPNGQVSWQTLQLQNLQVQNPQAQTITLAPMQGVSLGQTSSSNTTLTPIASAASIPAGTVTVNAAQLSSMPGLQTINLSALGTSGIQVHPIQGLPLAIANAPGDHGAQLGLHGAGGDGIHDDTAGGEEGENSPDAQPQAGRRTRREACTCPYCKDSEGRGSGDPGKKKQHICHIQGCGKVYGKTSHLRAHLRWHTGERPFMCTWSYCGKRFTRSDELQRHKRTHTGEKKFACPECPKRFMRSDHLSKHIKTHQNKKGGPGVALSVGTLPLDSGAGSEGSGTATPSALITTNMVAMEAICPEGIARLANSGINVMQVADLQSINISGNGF
Setting: k-mer, scored over probes, only values ≥0.25
ATATGGGC: 0.363
CCGCCCCC: 0.494
ATTGACCA: 0.267
CTATGCAA: 0.277
CCATATGG: 0.317
CAACGTTG: 0.268
AAGGGCGG: 0.323

Set 2 — technique: RNA Bind-n-Seq; form: RNA; sample: in vitro; tested at: 365 nM; relative to: no-protein control; reading: higher = stronger binding; endpoint: RBNS enrichment (R)
Target: RNA binding protein fox-1 homolog 2, RRM domain, GST-SBP tag (RBFOX2, Homo sapiens, UniProt O43251-10, residues 100-194)
Setting: natural RNA segment, single round, ends assumed
All sequences stand within: GGGAGUUCUACAGUCCGACGAUC … UGGAAUUCUCGGGUGCCAA
Residues (chain): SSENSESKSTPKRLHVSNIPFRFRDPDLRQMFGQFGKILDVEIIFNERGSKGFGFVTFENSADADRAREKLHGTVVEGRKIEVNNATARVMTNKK
ACCCUCAAGGAGGAGGUAACUAAGAGGCUCUUCCAGGGGUAGCUGGUGGGUGUGCUUUUCAUAGGCUUCCCUUUGCCUUAAACCUGAAGAUGUCUCCUCAAGCCUGUGGG: 0.838
CAGGCAAAAGUGGAGGGUGCCUUAUGGGCCCUCCUCAUAGGUUGUCUCUGCAUACACGAACCUAACCCAAAUUUGCUUUGGUGCCAGAAAAACUGAGCUAUGUUUGAACA: 0.389
GUUCUUUGUGUAUCAUGCAUUUAAAAUGAGAUGGAAAAGCAUUAGCAUACUGUGUAAAUAUGGACCUUUUCAGAUUAAAACGUUAAUGGAAAUGCUUUUAACUCAAACAG: 0.307
UUUUUUCUCUUCUUUUUUAAAAGAUAGGUAGGGUCUUGCUAGAUAUCUCUAGCAAGCCUGUUUCUUGUCAGGUAGCCCAGGAUGGCCUUGAACUCUUAAUCCUCCGCCUU: 0.367
GGCCACUUGGCCUCCACUUGGUUUCUUCCCCACAUCUCUCACUUGGGCUGGGAACUGACAGAGGAGCCUGCUGGGCUAGGAGUGGGGGACACUGGCCUCUUAGUGCCCGG: 0.372
GGGCUGGACCAUGUGGCCAAGCCUGCGCCUCCUGUGGCUUACCUGCCUGCCCACCCUUCGCACAUACACCCGUGGCAGGGAGUGUGGAACUGAAGACUGGCUGGAGGCAC: 0.185
GGCUGGUACCCUUCCCAGAGUUACAGAAUCUUAGGUGCCGUCUCUAGUCUGUGAGGGAGGAACUCCCAGCAUCCCCAUUGCCCACAAAUGGAAUCCUCACUGUAUCCACU: 3.6

Set 3 — technique: universal PBM; form: double-stranded DNA, one strand shown; sample: in vitro; tested at: 600 nM; reading: higher = stronger binding; endpoint: E-score
Target: Sal-like protein 4, full length isoform A (SALL4, Homo sapiens, UniProt Q9UJQ4, residues 1-1053)
UniProt Q9UJQ4, sequence (whole entry, looked up): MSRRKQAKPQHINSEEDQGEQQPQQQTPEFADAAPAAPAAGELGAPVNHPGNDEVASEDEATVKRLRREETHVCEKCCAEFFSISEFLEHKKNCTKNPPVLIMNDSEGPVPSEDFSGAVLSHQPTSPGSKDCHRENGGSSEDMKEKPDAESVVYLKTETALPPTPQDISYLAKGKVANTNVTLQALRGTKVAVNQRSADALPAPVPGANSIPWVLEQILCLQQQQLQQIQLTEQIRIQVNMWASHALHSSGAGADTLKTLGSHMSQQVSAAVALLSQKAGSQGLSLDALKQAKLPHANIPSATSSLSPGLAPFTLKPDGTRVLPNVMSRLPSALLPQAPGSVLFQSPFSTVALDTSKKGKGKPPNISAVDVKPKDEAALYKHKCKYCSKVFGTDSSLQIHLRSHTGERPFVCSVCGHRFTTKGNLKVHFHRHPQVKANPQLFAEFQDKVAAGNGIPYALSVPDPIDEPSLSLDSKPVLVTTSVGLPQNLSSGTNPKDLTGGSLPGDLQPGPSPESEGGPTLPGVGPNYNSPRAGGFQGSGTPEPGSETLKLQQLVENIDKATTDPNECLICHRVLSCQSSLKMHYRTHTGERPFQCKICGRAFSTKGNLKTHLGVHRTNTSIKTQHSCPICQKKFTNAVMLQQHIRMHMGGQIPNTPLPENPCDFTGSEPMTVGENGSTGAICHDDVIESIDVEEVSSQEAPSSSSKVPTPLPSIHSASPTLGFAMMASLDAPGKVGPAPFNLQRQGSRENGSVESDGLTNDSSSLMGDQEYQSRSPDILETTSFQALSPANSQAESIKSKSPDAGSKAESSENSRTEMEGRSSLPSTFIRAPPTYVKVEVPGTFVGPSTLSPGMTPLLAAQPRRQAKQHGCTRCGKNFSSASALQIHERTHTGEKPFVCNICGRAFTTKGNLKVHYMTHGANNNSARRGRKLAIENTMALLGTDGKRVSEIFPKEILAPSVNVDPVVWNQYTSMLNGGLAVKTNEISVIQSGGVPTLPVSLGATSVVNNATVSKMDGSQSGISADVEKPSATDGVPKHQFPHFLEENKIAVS
Setting: 8-mer, flanks averaged, mean of replicates
CACGGTGG: -0.225
CACAACGG: -0.204
CCCCACTA: -0.296
CCATTTAG: -0.0129

Single results of other studies
PhoQ, residues 284 288 289 292 302 303 SNGLAW
fold induction (PhoP, residues 12 14 15 18 19 SEGLL (Escherichia coli, UniProt P23836); Sort-seq, measured: YFP reporter; E. coli; PhoQ-PhoP variant library, with: 10 µM Mg2+; relative to: high Mg2+ state, higher = stronger signaling): 13.3

A few entries again (set 1):
ATTGACCA: 0.267
CTATGCAA: 0.277
CCATATGG: 0.317
